# Results from different studies.
SMILES,assay,test system,conditions,logD
C[n+]1cc2cc3cc(ccc31)NC(=O)CCCCC(=O)Nc1ccc3c(c1)cc(c[n+]3C)C(=O)NCc1cccc(c1)CNC2=O,shake flask,aqueous buffer,pH 7.4,< -1
CCNC(=O)C1OC(n2cnc3c(NCC(c4ccccc4)c4ccccc4)nc(NCCc4ccc(CC[N+](C)(C)C)cc4)nc32)C(O)C1O (stereo not drawn),shake flask,aqueous buffer,pH 7.4,0.1
Cc1ccc(N2Cc3cc(NC(=O)N4CCN(c5ccc(F)cc5)CC4)ccc3C2=O)cc1,shake flask,aqueous buffer,pH 7.4,< 5
CCNC(=O)C1OC(n2cnc3c(N)nc(NCCNC(=O)Nc4ccncc4)nc32)C(O)C1O (stereo not drawn),shake flask,aqueous buffer,pH 7.4,< -0.1
CCn1cc(C(=O)NCCNCCO)c(=O)c2cc(OCc3ccc(C(C)(C)C)cc3)c(Cl)cc21,shake flask,PBS,"2 h, pH 7.4",< 3
Cc1ccc(S(=O)(=O)OCCOC(=O)c2cc(C#N)c(N3CCN(C(=O)Cc4ccccc4)CC3)nc2C)cc1,shake flask,PBS,pH 7.4,1.11
Cc1ccccc1-c1cc(N2CCN(C(=O)CCC(=O)O)CC2)ccc1N(C)C(=O)C(C)(C)c1cc(C(F)(F)F)cc(C(F)(F)F)c1,shake flask,aqueous buffer,pH 7,3.49
Cc1ccc(S(=O)(=O)OCCOC(=O)c2cc(C#N)c(N3CCC(C(=O)NS(=O)(=O)c4ccc(Cl)s4)CC3)nc2C)cc1,shake flask,PBS,pH 7.4,0.99
COc1cc(-c2cncc(-c3ccc(N4CCN(C)CC4)cc3)c2C)cc(OC)c1OC,shake flask,aqueous buffer,pH 7.4,3.37
Cc1nc(-c2ccc(NC(=O)c3cccs3)cc2Cl)no1,shake flask,PBS,"4 h, pH 7.4",3.3
CCNC(=O)C1OC(n2cnc3c(NCC(c4ccccc4)c4ccccc4)nc(NCCc4ccc(CCN)cc4)nc32)C(O)C1O (stereo not drawn),shake flask,aqueous buffer,pH 7.4,1.9
COc1ccc(S(=O)(=O)N2CCc3ccccc3C2)cc1N1CCN(C(=O)c2ccc(F)cc2C(F)(F)F)CC1,,,pH 7.4,6.3
O=[11C](N1CCC(CNS(=O)(=O)c2ccc(Cl)cc2)CC1)n1cncn1,shake flask,PBS,pH 7.4,1.85
CCNC(=O)C1OC(n2cnc3c(NC(CC)CC)nc(NCCNC(=O)Nc4cc[n+](C)cc4)nc32)C(O)C1O (stereo not drawn),shake flask,aqueous buffer,pH 7.4,-0.7
COc1cc(/C=C/C(=O)/C=C(O)/C=C/c2ccc(OCC(=O)N3CCOCCOCCOCC3)c(OC)c2)ccc1OCC(=O)N1CCOCCOCCOCC1,shake flask,aqueous buffer,"12 h, pH 7.4",3.2
Cc1ccc(N2Cc3cc(NC(=O)N4CCN(c5cccc(C(F)(F)F)c5)CC4)ccc3C2=O)cc1,shake flask,aqueous buffer,pH 7.4,< 5
Cc1ccc(N2C(=O)c3ccccc3NC23C(=O)N(C)c2ccc(Br)cc23)cc1 (stereo not drawn),shake flask,aqueous buffer,pH 7.4,3.4
COc1cc(/C=C/C(=O)/C=C(O)/C=C/c2ccc(OCC(=O)N3CCOCCOCCOCCOCCOCC3)c(OC)c2)ccc1OCC(=O)N1CCOCCOCCOCCOCCOCC1,shake flask,aqueous buffer,"12 h, pH 7.4",2.7
O=C(Nc1ccc(-c2noc(C3CC3)n2)c(Cl)c1)c1cccs1,shake flask,PBS,"4 h, pH 7.4",4.3
CCNC(=O)C1OC(n2cnc3c(NC(CC)CC)nc(NCCNC(=O)Nc4ccncc4)nc32)C(O)C1O (stereo not drawn),shake flask,aqueous buffer,pH 7.4,2.25
COc1cc(-c2cncc(-c3ccc(C4CCN(C)CC4)cc3)c2C)cc(OC)c1OC,shake flask,aqueous buffer,pH 7.4,2.64
C[n+]1cc(C(=O)NCCc2c[nH]c3ccc(NC(=O)c4cc5ccccc5[n+](C)c4)cc23)cc2ccccc21,shake flask,aqueous buffer,pH 7.4,-0.2
O=C(NCCNCCO)c1cn(Cc2ccccc2)c2c(Cl)c(OCc3ccc(C(F)(F)F)cc3)c(Cl)cc2c1=O,shake flask,PBS,"2 h, pH 7.4",> 3
C[n+]1cc(C(=O)NCc2cccc(CNC(=O)c3cc4ccccc4[n+](C)c3)c2)cc2ccccc21,shake flask,aqueous buffer,pH 7.4,-0.6
CC[C@@H](C)N([11CH3])C(=O)c1nc(-c2ccccc2Cl)c2ccccc2n1,shake flask,aqueous buffer,pH 7.4,~3.5
Cc1ccc2c(=O)n(-c3ccc([18F])cc3)c(CCN3C(=O)c4cccc(OC(C)C)c4C3=O)nc2c1,shake flask,PBS,pH 7.4,3.5
O=C(NCCNCCO)c1cn(Cc2ccc(F)cc2)c2cc(Cl)c(OCc3ccc(C(F)(F)F)cc3)cc2c1=O,shake flask,PBS,"2 h, pH 7.4",< 3
CCNC(=O)C1OC(n2cnc3c(NCC(c4ccccc4)c4ccccc4)nc(NCCNC(=O)Nc4ccncc4)nc32)C(O)C1O (stereo not drawn),shake flask,aqueous buffer,pH 7.4,3.5
O=C1CCCCC(=O)Nc2ccc3ncc(cc3c2)C(=O)NCc2cccc(c2)CNC(=O)c2cnc3ccc(cc3c2)N1,shake flask,aqueous buffer,pH 7.4,2.3
CCC(=O)N1CCN(c2ccc(N(C)C(=O)C(C)(C)c3cc(C(F)(F)F)cc(C(F)(F)F)c3)c(-c3ccccc3C)c2)CC1,shake flask,aqueous buffer,pH 7,4.99

# A few entries again:
SMILES,assay,test system,conditions,logD
Cc1ccc(S(=O)(=O)OCCOC(=O)c2cc(C#N)c(N3CCC(C(=O)NS(=O)(=O)c4ccc(Cl)s4)CC3)nc2C)cc1,shake flask,PBS,pH 7.4,0.99
Cc1ccc(N2Cc3cc(NC(=O)N4CCN(c5ccc(F)cc5)CC4)ccc3C2=O)cc1,shake flask,aqueous buffer,pH 7.4,< 5
COc1cc(/C=C/C(=O)/C=C(O)/C=C/c2ccc(OCC(=O)N3CCOCCOCCOCCOCCOCC3)c(OC)c2)ccc1OCC(=O)N1CCOCCOCCOCCOCCOCC1,shake flask,aqueous buffer,"12 h, pH 7.4",2.7
COc1cc(/C=C/C(=O)/C=C(O)/C=C/c2ccc(OCC(=O)N3CCOCCOCCOCC3)c(OC)c2)ccc1OCC(=O)N1CCOCCOCCOCC1,shake flask,aqueous buffer,"12 h, pH 7.4",3.2
CCNC(=O)C1OC(n2cnc3c(N)nc(NCCNC(=O)Nc4ccncc4)nc32)C(O)C1O (stereo not drawn),shake flask,aqueous buffer,pH 7.4,< -0.1
